Published values of several laboratories.
Each numbered part is a random draw from the data of one study; scales do not carry over between parts. “And” joins repeats or separate records; there may be more than shown.
Chain of UniProt P41595 (whole entry, looked up): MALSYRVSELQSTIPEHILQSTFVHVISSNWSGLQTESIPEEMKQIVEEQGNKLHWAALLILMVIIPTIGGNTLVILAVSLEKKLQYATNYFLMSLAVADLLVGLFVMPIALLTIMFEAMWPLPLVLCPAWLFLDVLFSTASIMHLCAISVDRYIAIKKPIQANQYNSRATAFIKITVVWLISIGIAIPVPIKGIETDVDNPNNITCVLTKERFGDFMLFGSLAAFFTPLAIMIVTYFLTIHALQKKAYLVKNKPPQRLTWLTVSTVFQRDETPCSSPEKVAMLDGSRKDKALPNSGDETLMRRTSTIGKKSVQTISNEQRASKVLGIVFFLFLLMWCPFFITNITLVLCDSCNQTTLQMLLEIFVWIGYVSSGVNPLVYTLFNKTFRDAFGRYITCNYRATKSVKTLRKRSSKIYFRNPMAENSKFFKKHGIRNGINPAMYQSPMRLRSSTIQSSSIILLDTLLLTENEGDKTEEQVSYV

Block 1
SMILES: COc1cc(C(=O)N2CCC(N3CCN(C)CC3)CC2)ccc1Nc1ncc2c(n1)N(C)c1ccccc1C(=O)N2C
target or system	assay	test system	setting	inhibition
AKT1 (mouse)	probe labelling, KiNativ, measured: GTFGkVILVK peptide, ATP loop	brain tissue lysate (mouse)	0.1 µM, added: ADP acyl-phosphate probe	-6%
ABL and ARG (mouse)	probe labelling, KiNativ, measured: Lys1 site peptide	brain tissue lysate (mouse)	0.1 µM, added: ADP acyl-phosphate probe	27%
human PBMC	probe labeling, inhibitor, KiNativ profiling	cell lysate	concentration not given, JAK1 domain 2, activation loop site, added: ATP acyl-phosphate probe	5.7% and -0.5%
SGK3 (mouse)	probe labelling, KiNativ, measured: FYAVkVLQK peptide, LYS1 site	brain tissue lysate (mouse)	0.1 µM, added: ADP acyl-phosphate probe	-2.5%
NEK3 human	KiNativ profiling	human PBMC lysate	concentration not given, ADP probe, activation loop site	-7.8%
NDR2 (mouse)	probe labelling, KiNativ ADP probe	mouse brain lysate	0.1 µM, LYS1 labelled site	0.3%
MST4 and YSK1 human	KiNativ profiling	human PBMC	1 µM, LYS2 site, added: ADP acyl phosphate probe	11.7%
PIK3CD human	KiNativ profiling	human PBMC	0.1 µM, ATP site, added: ADP acyl phosphate probe	-5.2%
human PBMC	probe labeling, inhibitor, KiNativ profiling, measured: DTGHIYAMkILR	cell lysate	1 µM, LYS1 site, added: ATP acyl-phosphate probe	10.6%
human PBMC	probe labeling, inhibitor, KiNativ profiling, measured: VKELPTLkDMDFLNK	cell lysate	concentration not given, ATP site, added: ATP acyl-phosphate probe 1 µM	4.6%
LYN (human)	probe labelling, KiNativ ADP probe	human PBMC lysate	concentration not given, LYS1 labelled site	3%
mouse BRSK2 and CHK1	probe labelling, KiNativ ADP probe	mouse brain lysate	0.1 µM, LYS2 site DIkPENLLLDER	14.8%

Block 2 — cell line: HaCaT; tested at: 100 µM; time: 36 h
SMILES	viability [%]
C[C@]12CC[C@@H]3c4ccc(O)cc4CC[C@H]3[C@@H]1C[C@@H](O)[C@@H]2O	57.8
Nc1nc(NC2CC2)c2ncn([C@H]3C=C[C@@H](CO)C3)c2n1	95.1
CO[C@@H]1[C@@H](O[C@@H]2O[C@H](C)[C@@H](O[C@H]3C[C@@](C)(O)[C@@H](O)[C@H](C)O3)[C@H](N(C)C)[C@H]2O)[C@@H](CC=O)C[C@@H](C)[C@@H](O[C@H]2CC[C@H](N(C)C)[C@@H](C)O2)/C=C/C=C/C[C@@H](C)OC(=O)C[C@H]1OC(C)=O	91.7
C[C@]12CCC(=O)C=C1C=C[C@@H]1[C@@H]2CC[C@@]2(C)[C@H]1CC[C@@]21CCC(=O)O1	86.8
COc1ccc2[nH]c(SCc3ncc(C)c(OC)c3C)nc2c1	50.6
CN(C)CCC(c1ccc(Cl)cc1)c1ccccn1 (stereo not drawn)	84.7

Block 3 — organism: Sarcocystis neurona; observed: parasite growth; tested at: 10 µM; time: 96 h; notes: first screen; baseline: untreated
SMILES	log2 fold change
O=C(O[C@H]1[C@H](Oc2ccccc2COC(=O)C2(O)C=CCCC2=O)O[C@H](CO)[C@@H](O)[C@@H]1O)c1ccccc1 (stereo partly drawn)	0.17
CC(=O)O[C@]1(C(C)=O)CC[C@H]2[C@@H]3C[C@H](C)C4=CC(=O)CC[C@]4(C)[C@H]3CC[C@@]21C	0.17
NS(=O)(=O)c1cc(C(=O)O)c(NCc2ccco2)cc1Cl	0.4
CCCN1CCCC[C@H]1C(=O)Nc1c(C)cccc1C	-0.11
COC1=CC(=O)C[C@@H](C)[C@]12Oc1c(Cl)c(OC)cc(OC)c1C2=O	0.53

Further values, each from its own experiment
Structure (SMILES)	target	observed	technique	tested at	measurement	result
COc1cc(-c2cn(C3CCc4ccccc4N(CC(F)(F)F)C3=O)nn2)ccc1-n1ccc(C)n1 (stereo not drawn)	5-hydroxytryptamine receptor 2B (HTR2B, Homo sapiens, UniProt P41595)	binding	radioligand binding	10 µM	inhibition	6.39%

Repeated from above (block 1):
target or system	assay	test system	setting	inhibition
human PBMC	probe labeling, inhibitor, KiNativ profiling, measured: DTGHIYAMkILR	cell lysate	1 µM, LYS1 site, added: ATP acyl-phosphate probe	10.6%
human PBMC	probe labeling, inhibitor, KiNativ profiling	cell lysate	concentration not given, JAK1 domain 2, activation loop site, added: ATP acyl-phosphate probe	5.7% and -0.5%
